{"data": "Published values collected from several papers", "note": "Each line is one published result; not all experiments were run side by side. ± gives the spread as reported."}
{"Structure (SMILES)": "CSCC[C@@H]1NC(=O)[C@H](C(C)C)NC(=O)[C@H](CCCNC(=N)N)NC(=O)[C@@H]2CCCN2C(=O)CNC(=O)[C@@H](NC(=O)CNC(=O)[C@H](CO)NC(=O)CNC(=O)[C@H](CO)NC(=S)Nc2ccc(C[C@H]3CN(CC(=O)O)CCN(CC(=O)O)CCN3CC(=O)O)cc2)CSSC[C@@H](C(N)=O)NC(=O)[C@@H]2CCCN2C(=O)CNC(=O)[C@H](CCC(=O)O)NC(=O)[C@H](CC(=O)O)NC(=O)[C@H](CC(=O)O)NC(=O)CNC(=O)[C@H](CC(C)C)NC(=O)[C@H](Cc2c[nH]cn2)NC(=O)[C@H](CC(C)C)NC(=O)CNC(=O)[C@H](Cc2c[nH]cn2)NC1=O [copper-64 labelled]", "test": "dynamic PET", "test system": "CD rat, myocardial infarction model, left ventricular blood pool", "setting": "intravenous, 18.5 MBq, 15 to 60 min", "quantity": "half-life", "value": "24.3 ± 1.5 min"}
{"Structure (SMILES)": "C=CC(=O)Nc1cccc(Cn2ncc3cnc(Nc4cnn(CCOC)c4)nc32)c1", "test system": "Sprague-Dawley rat male, serum", "setting": "oral, 180 mg/kg, day 28, 28-day subacute toxicity", "quantity": "serum ALT", "value": "46 ± 16.3 U/L"}
{"Structure (SMILES)": "CC(=O)NCCCC[C@@H]1NC(=O)[C@H](Cc2c[nH]c3c(C)cccc23)NC(=O)[C@H]([C@@H](C)O)NC(=O)[C@H](CC(N)=O)NC(=O)[C@@H](NC(C)=O)C(C)(C)SSC(C)(C)[C@@H](C(=O)N[C@@H](Cc2ccc(OCCN)cc2)C(=O)N[C@@H](Cc2ccc3ccccc3c2)C(=O)NC2(C(=O)N[C@@H](CCC(=O)O)C(=O)N[C@@H](CC(N)=O)C(=O)N[C@@H](Cc3cccnc3)C(=O)N(C)CC(N)=O)CCOCC2)NC1=O", "test system": "cynomolgus monkey, blood", "setting": "0.013 µM, 2 h", "quantity": "whole blood to plasma concentration ratio", "value": "0.79 ± 0.06"}
{"Structure (SMILES)": "N=C(N)NCCC[C@H](NC(=O)[C@H](CCCNC(=N)N)NC(=O)[C@H](CCCNC(=N)N)NC(=O)[C@H](CCC(N)=O)NC(=O)[C@H](CCCNC(=N)N)NC(=O)[C@H](CCCNC(=N)N)NC(=O)[C@H](CCCCN)NC(=O)[C@H](CCCCN)NC(=O)[C@H](CCCNC(=N)N)NC(=O)CNC(=O)[C@H](Cc1ccc(O)cc1)NC(=O)[C@H](Cc1ccccc1)NC(=O)[C@H](Cc1ccccc1)NC(=O)[C@H](Cc1ccccc1)NC(=O)Cc1ccc2ccccc2c1)C(=O)O", "test system": "C57BL/6 mice", "setting": "intraperitoneal, 5 mg/kg, 6 h", "scale": "direction not given", "quantity": "health score", "value": 5}
{"Structure (SMILES)": "CSCC[C@H](NC(=O)CNC(=O)[C@H](CCCCN)NC(=O)[C@H](CC(C)C)NC(=O)[C@@H]1CCCN1C(=O)[C@H](CO)NC(=O)[C@H](Cc1c[nH]cn1)NC(=O)[C@H](Cc1c[nH]c2ccccc12)NC(=O)[C@H](CCCNC(=N)N)NC(=O)[C@H](CC(C)C)NC(=O)[C@H](CCCNC(=N)N)NC(=O)[C@H](Cc1c[nH]c2ccccc12)NC(=O)[C@H](CS)NC(=O)CCCCCNC(=O)CN1CCN(CC(=O)O)CCN(CC(=O)O)CCN(CC(=O)O)CC1)C(=O)O [copper-64 labelled]", "test": "ex vivo biodistribution", "test system": "male C57BL/6J mice, stomach", "setting": "intravenous, 1.85 MBq, 2 h, B16-F10 tumour-bearing", "quantity": "tissue uptake", "value": "6.38 %ID/g"}
{"Structure (SMILES)": "N#[11C]c1ccc(-c2csc(NN=C3CCCC3)n2)cc1", "test system": "C57BL/6 mice, male, spleen", "setting": "intravenous, 3 MBq, 15 min", "quantity": "radioactivity uptake", "value": "4.05 ± 0.04 %ID/g"}
{"Structure (SMILES)": "CC(C)[C@@H]1NC(=O)CNC(=O)[C@H](CC(N)=O)NC(=O)[C@H](CCCNC(=N)N)NC(=O)[C@H](Cc2ccc(O)cc2)NC(=O)[C@H](C(C)C)NC(=O)[C@@H](NC(=O)[C@@H](NC(=O)[C@H](CC(N)=O)NC(=O)[C@H](Cc2c[nH]c3ccccc23)NC(=O)[C@H](C)NC(=O)[C@H](Cc2ccccc2)NC(=O)CNC(=O)[C@H](CCCCN)NC(=O)[C@H](Cc2ccccc2)NC(=O)[C@H](Cc2ccccc2)NC(=O)[C@H](CCCCN)NC(=O)OCC2c3ccccc3-c3ccccc32)C(C)C)CSSC[C@@H](C(=O)N[C@@H](Cc2c[nH]cn2)C(=O)N[C@@H](CCCNC(=N)N)C(=O)N[C@@H](CCCNC(=N)N)C(=O)N[C@@H](C)C(=O)N[C@@H](CC(N)=O)C(N)=O)NC(=O)[C@H](C(C)C)NC(=O)[C@H](CCCNC(=N)N)NC1=O", "test system": "ICR mouse", "setting": "ip, 5 mg/kg", "scale": "direction not given", "quantity": "lachrymation score", "value": 0}
{"Structure (SMILES)": "CN1Cc2cc(Cl)ccc2-n2c(nnc2C2CCN(c3cccc([18F])n3)CC2)C1", "test": "PET two-tissue compartment model", "test system": "rhesus monkey, male, striatum", "setting": "intravenous, dose not given, 100 min scan, baseline scan", "quantity": "total volume of distribution", "value": "1.11 ± 0.32 mL/cm3"}
{"Structure (SMILES)": "C[C@@H](Oc1ccc2c(c1)[C@H]1CCN[C@@]1(C)CO2)c1ccccc1", "test": "lipid PAMPA", "test system": "artificial lipid membrane", "setting": "10 µM, 16 h", "quantity": "recovery", "value": "4.9%"}
{"Structure (SMILES)": "CCCC[C@H]1C(=O)N(C)[C@@H](CCCC)C(=O)N[C@@H](CCCNC(=O)CN2CCN(CC(=O)O)CCN(CC(=O)O)CCN(CC(=O)O)CC2)C(=O)N[C@H](C(=O)NCC(N)=O)CSCC(=O)N[C@@H](Cc2ccc(O)cc2)C(=O)N(C)[C@@H](C)C(=O)N[C@@H](CC(N)=O)C(=O)N2CCC[C@H]2C(=O)N[C@@H](Cc2c[nH]cn2)C(=O)N[C@@H](CC(C)C)C(=O)N(C)CC(=O)N[C@@H](Cc2c[nH]c3ccccc23)C(=O)N[C@@H](CO)C(=O)N[C@@H](Cc2c[nH]c3ccccc23)C(=O)N1C [gallium-68 labelled]", "test system": "NOD/SCID mice, CHO-hPD-L1 xenograft, heart", "setting": "60 min, added: blocking agent 50 µg co-injected", "quantity": "tissue uptake", "value": "4.21 ± 0.98 %ID/g"}
{"Structure (SMILES)": "CC[C@H](C)[C@H](NC(=O)[C@H](CCCCN)NC(=O)CNC(=O)[C@H](CC(C)C)NC(=O)[C@H](Cc1ccccc1)NC(=O)[C@H](CCCCN)NC(=O)[C@H](CO)NC(=O)[C@H](Cc1ccccc1)NC(=O)[C@H](Cc1c[nH]c2ccccc12)NC(=O)[C@H](CCC(N)=O)NC(=O)[C@@H](NC(=O)[C@H](Cc1ccccc1)NC(=O)CCCCCNC(=O)CN1CCN(CC(=O)O)CCN(CC(=O)O)CCN(CC(=O)O)CC1)C(C)C)C(=O)N[C@@H](CCC(=O)O)C(=O)N1CCC[C@H]1C(=O)N[C@@H](CC(=O)O)C(=O)N[C@H](C(=O)N[C@@H](CO)C(=O)N[C@@H](CCC(N)=O)C(=O)N[C@H](C(=O)N[C@@H](CCC(N)=O)C(=O)N[C@@H](CC(=O)O)C(=O)N1CCC[C@H]1C(=O)N[C@@H](CC(N)=O)C(=O)N[C@@H](CC(=O)O)C(=O)N[C@@H](CCC(N)=O)C(=O)N[C@@H](Cc1ccc(O)cc1)C(=O)N[C@@H](CCC(=O)O)C(=O)N1CCC[C@H]1C(=O)N[C@@H](Cc1ccccc1)C(=O)O)C(C)C)C(C)C [copper-64 labelled]", "test": "dynamic PET", "test system": "mouse, CT26 tumour, untreated, tumour", "setting": "intravenous, 100 µCi/mouse, 2580 s", "quantity": "SUVmean", "value": "1.11 SUV"}
{"Structure (SMILES)": "O=C1NC2(CC2)COc2ncc(F)cc2[C@H]2COCCN2c2ccn3ncc1c3n2", "test system": "Sprague-Dawley rat, female, uterus", "setting": "oral, 5 mg/kg/day, 4 weeks dosing, end of recovery", "quantity": "organ-to-body weight ratio", "value": "0.266 ± 0.098%"}
{"Structure (SMILES)": "C#Cc1c(F)ccc2cc(O)cc(-c3ncc4c(N5CC6CCC(C5)N6C(=O)OC(OC(=O)CCC)C(C)C)nc(OC[C@@]56CCCN5C[C@H](F)C6)nc4c3F)c12 (stereo partly shown)", "test": "chemical stability", "test system": "simulated intestinal fluid", "setting": "1 µM, 30 min", "quantity": "compound remaining", "value": "96.7%"}
{"note": "Repeated from above:"}
{"Structure (SMILES)": "C[C@@H](Oc1ccc2c(c1)[C@H]1CCN[C@@]1(C)CO2)c1ccccc1", "test": "lipid PAMPA", "test system": "artificial lipid membrane", "setting": "10 µM, 16 h", "quantity": "recovery", "value": "4.9%"}
